# Measured values gathered from unrelated publications.
# Compare with care: the assays were run in different laboratories. Numbers after ± are the reported error.
# DRD3: D(3) dopamine receptor (DRD3, Homo sapiens, UniProt P35462)
# Chain of UniProt P35462 (whole entry, looked up): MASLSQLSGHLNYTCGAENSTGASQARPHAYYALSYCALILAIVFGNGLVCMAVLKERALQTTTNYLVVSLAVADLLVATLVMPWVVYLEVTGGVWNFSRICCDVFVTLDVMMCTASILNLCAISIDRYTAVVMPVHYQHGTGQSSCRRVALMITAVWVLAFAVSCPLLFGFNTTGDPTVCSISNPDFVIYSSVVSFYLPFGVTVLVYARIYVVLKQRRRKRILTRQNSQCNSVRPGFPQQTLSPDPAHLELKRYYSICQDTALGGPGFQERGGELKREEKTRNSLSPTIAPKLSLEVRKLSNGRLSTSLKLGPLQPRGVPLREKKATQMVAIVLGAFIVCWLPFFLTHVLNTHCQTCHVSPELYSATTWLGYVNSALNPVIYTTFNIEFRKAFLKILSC
# KIT: Mast/stem cell growth factor receptor Kit (KIT, Homo sapiens, UniProt P10721)
# Chain of UniProt P10721 (whole entry, looked up): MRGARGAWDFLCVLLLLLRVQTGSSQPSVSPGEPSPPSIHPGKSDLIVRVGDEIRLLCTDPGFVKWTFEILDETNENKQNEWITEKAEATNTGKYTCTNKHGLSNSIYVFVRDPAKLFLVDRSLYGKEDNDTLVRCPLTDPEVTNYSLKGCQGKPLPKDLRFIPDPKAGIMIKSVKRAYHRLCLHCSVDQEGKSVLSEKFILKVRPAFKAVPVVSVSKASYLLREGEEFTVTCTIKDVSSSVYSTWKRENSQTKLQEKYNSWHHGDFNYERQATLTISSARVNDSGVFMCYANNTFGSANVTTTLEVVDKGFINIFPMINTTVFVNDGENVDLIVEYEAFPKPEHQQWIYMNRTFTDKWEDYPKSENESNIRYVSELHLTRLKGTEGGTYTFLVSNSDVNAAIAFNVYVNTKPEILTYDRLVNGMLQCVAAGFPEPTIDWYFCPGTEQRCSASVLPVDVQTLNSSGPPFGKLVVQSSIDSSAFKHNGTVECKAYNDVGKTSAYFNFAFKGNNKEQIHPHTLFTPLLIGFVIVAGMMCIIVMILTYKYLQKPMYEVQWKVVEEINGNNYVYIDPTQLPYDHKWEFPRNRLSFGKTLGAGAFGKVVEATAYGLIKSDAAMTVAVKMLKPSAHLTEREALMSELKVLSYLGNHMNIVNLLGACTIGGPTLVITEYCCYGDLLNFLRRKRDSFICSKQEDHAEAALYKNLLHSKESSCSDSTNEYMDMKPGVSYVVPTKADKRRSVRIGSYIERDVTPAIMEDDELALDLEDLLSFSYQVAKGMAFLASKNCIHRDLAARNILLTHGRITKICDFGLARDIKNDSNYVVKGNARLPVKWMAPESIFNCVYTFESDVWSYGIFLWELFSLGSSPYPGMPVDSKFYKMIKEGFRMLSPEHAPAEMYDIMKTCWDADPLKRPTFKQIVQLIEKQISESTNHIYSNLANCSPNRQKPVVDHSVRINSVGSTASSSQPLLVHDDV
# CNR1: Cannabinoid receptor 1 (CNR1, Homo sapiens, UniProt P21554)
# Chain of UniProt P21554 (whole entry, unmodified, looked up): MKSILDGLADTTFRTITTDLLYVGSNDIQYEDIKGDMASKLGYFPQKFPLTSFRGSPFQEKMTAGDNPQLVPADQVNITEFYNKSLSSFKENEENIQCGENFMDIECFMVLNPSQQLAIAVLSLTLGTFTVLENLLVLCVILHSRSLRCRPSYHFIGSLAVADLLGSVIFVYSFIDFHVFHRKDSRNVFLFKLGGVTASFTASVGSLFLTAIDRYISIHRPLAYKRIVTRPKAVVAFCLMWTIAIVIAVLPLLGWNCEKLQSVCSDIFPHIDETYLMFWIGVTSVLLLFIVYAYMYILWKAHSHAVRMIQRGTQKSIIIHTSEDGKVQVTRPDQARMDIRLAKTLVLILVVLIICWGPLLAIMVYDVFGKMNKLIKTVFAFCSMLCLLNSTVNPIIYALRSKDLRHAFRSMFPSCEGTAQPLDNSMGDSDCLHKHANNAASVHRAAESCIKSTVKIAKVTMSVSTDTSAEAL
# Si: Sucrase-isomaltase, intestinal (Si, Rattus norvegicus, UniProt P23739)
# Chain of UniProt P23739 (whole entry, looked up): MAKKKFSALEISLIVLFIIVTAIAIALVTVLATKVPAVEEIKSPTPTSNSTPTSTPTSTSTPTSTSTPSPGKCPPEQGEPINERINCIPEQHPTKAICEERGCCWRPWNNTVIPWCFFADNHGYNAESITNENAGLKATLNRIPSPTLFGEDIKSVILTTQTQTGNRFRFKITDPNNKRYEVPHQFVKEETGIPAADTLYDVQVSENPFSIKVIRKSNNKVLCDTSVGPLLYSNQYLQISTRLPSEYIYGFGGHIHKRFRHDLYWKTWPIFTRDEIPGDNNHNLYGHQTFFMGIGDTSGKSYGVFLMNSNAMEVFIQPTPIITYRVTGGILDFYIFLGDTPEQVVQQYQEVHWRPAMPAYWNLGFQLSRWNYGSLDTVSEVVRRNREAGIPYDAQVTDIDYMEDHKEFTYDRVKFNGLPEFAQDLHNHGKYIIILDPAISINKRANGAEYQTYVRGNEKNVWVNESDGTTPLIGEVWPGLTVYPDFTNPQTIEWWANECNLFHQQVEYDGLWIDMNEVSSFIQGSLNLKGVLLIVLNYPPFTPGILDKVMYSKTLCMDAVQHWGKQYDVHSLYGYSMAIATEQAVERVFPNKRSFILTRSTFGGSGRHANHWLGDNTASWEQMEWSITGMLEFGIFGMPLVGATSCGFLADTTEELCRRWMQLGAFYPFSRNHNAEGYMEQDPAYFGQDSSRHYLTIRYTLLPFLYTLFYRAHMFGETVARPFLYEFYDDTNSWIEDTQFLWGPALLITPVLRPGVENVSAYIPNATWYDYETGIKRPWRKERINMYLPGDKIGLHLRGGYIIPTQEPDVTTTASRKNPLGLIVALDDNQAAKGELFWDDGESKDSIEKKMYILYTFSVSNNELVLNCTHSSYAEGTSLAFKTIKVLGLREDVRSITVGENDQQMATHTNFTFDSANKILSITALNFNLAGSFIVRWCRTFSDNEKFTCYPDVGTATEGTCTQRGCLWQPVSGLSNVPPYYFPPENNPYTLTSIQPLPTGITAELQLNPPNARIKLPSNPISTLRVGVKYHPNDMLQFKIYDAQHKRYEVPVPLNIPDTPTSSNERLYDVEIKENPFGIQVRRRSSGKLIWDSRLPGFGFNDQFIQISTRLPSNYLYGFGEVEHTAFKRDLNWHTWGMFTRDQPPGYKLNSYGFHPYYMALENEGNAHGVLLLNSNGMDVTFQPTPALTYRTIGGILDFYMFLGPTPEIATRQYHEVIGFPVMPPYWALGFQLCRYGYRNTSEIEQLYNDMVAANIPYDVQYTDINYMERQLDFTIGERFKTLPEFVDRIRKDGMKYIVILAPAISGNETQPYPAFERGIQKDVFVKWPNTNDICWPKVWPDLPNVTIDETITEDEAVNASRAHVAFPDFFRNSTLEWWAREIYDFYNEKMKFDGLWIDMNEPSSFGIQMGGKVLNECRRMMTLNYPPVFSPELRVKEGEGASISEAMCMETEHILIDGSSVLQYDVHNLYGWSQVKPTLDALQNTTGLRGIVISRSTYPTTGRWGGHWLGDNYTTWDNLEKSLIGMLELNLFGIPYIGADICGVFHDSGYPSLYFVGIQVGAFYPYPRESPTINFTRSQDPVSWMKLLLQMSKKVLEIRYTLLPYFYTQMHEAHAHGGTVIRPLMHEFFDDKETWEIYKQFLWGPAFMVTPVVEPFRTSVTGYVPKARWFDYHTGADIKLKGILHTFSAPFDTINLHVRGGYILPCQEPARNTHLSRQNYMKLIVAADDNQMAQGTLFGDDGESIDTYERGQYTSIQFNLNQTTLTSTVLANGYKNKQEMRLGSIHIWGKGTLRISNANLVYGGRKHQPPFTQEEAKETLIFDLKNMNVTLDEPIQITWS
# Chain of UniProt P0C0I3 (whole entry, looked up): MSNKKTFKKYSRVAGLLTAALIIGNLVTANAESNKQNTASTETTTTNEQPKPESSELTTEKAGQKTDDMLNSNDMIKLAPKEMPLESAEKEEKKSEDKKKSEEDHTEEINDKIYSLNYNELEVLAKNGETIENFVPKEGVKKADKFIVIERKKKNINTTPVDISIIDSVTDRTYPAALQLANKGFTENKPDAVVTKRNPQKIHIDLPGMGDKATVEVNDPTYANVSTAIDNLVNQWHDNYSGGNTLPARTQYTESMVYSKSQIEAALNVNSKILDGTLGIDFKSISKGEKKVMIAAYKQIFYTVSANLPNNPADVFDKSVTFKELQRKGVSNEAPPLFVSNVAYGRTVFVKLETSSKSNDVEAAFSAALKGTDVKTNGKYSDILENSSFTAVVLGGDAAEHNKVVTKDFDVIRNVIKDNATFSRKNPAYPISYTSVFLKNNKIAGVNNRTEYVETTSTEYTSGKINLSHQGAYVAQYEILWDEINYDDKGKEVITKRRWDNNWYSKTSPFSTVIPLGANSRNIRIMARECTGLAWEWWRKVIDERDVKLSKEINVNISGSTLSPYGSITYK
# Chain of UniProt Q15910 (whole entry, looked up): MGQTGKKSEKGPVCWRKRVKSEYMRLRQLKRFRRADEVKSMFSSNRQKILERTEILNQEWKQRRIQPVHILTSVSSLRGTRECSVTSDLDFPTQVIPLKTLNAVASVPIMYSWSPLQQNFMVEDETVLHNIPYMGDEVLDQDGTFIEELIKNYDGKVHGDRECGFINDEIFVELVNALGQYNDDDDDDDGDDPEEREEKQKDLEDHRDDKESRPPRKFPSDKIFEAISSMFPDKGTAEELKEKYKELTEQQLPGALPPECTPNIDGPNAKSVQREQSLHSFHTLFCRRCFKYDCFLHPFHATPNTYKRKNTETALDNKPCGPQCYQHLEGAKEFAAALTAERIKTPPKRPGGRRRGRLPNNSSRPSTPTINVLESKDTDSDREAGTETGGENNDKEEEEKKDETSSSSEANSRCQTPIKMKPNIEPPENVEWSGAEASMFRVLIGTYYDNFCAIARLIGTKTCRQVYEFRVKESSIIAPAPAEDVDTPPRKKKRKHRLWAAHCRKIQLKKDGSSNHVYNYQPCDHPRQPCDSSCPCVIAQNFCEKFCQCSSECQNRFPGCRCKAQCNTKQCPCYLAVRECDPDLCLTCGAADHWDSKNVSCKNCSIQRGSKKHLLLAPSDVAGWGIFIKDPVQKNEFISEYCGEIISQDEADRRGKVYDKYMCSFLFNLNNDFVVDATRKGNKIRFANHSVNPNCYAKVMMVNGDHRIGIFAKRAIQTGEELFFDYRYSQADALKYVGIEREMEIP
Structure (SMILES),tested on,test,test system,conditions,how to read,endpoint,value
CCCNC(=O)C1CCCN(CCOc2ccc(Cl)cc2)C1 (stereo not drawn),DRD3,binding,,,,Ki,0.2 µM
CSc1cc(C)[nH]c(=O)c1CNC(=O)c1c(C)n([C@H](C)C2CCN(CC(F)(F)F)CC2)c2ccccc12,"Histone-lysine N-methyltransferase EZH2, PRC2 pentameric complex (EZH2, Homo sapiens, UniProt Q15910)","enzyme activity, inhibitor",,added: H3K27me3 activating peptide,,IC50,0.0002 µM
CC(C)[C@H]1NC(=O)C[C@H]2/C=C/CCSSC[C@@H](NC1=O)C(=O)N[C@H](Cc1cccc3ccccc13)C(=O)NCC(=O)O2,KIT,"enzyme activity, inhibitor",,10 µM,,inhibition,-1.2%
CCN(CC)C(=O)[C@@H]1C=C2c3cccc4c3c(cn4C(=O)c3ccco3)C[C@H]2N(C)C1,"HTR1D (Homo sapiens, UniProt P28221)","ligand displacement, radioligand",,,,Ki,1.15 µM
COC(=O)c1occc1CN1CCC(c2c[nH]c3ccccc23)CC1,DRD3,binding,,,,Ki,0.1 µM
COc1cccc(C(C[N+](=O)[O-])c2c(-c3ccccc3)[nH]c3ccccc23)c1 (stereo not drawn),CNR1,"G protein activation, agonist, BRET",,,,EC50,1.98 µM
COc1ccccc1-c1n[nH]c2nc(NC3CCN(C(=O)Cc4ccc(F)cc4F)CC3)ncc12,,"bead binding, competition bead pull-down, refers to: LINJ.25.1220",Leishmania donovani axenic amastigote extract,10 µM,baseline: vehicle,relative abundance,1.29
CCN(CC)C(=O)c1ccc(C(c2cccc(O)c2)N2CC(C)N(Cc3ccccc3)CC2C)cc1 (stereo not drawn),"OPRD1 (Homo sapiens, UniProt P41143, D210N)",,,,,Ki,0.00126 ± 0.00019 µM
CC(C)(C)C(=O)OCOP(=O)(OCOC(=O)C(C)(C)C)C1CCCN(O)C1=O (stereo not drawn),SF-539,,,,,CC50,> 100 µM
COc1ccccc1-c1n[nH]c2nc(N[C@H]3CC[C@H](NS(=O)(=O)CC(C)C)CC3)ncc12,,"bead binding, competition bead pull-down, refers to: LINJ.10.0430",Leishmania donovani extract,10 µM,baseline: vehicle,relative abundance,0.99
CN(C)[C@H]1C[C@@]23CC[C@@]4(O2)C(=CC[C@]2(C)[C@@H](c5ccc6ccncc6c5)CC[C@H]24)C=C3[C@@H](O)[C@@H]1O,"AKT1 (Homo sapiens, UniProt P31749)","ATP probe labelling, inhibitor, KiNativ profiling",,1 µM,,inhibition,-6.6%
CC[C@H](C)[C@H](NC(=O)[C@H](CO)NC(=O)[C@H](Cc1ccc(O)cc1)NC(=O)[C@H](Cc1ccc(O)cc1)NC(=O)[C@H](CC(N)=O)NC(=O)CNC(=O)[C@H](CO)NC(=O)[C@H](Cc1ccc(O)cc1)NC(=O)[C@H](CO)NC(=O)[C@H](CO)NC(=O)[C@H](CC(N)=O)NC(=O)COCCOCCNC(=O)CN1CCN(CC(=O)O)CCN(CC(=O)O)CCN(CC(=O)O)CC1)C(=O)N[C@@H](CC(C)C)C(N)=O [copper-64 labelled],,dynamic PET,"tamoxifen-induced PDAC mouse model, metastases","0.1 min, CLDN4-expressing tumours",,maximum metastasis uptake,0.81 %IA/cc
CCCc1cc(O)c2c(c1)OC(C)(C)c1ccc(C)cc1-2,Si,"enzyme activity, inhibitor, absorbance",,,,IC50,470 µM
CC[C@H](C)[C@H](NC(=O)[C@H](CO)NC(=O)[C@H](CC(N)=O)NC(=O)[C@H](CC(C)C)NC(=O)[C@H](Cc1ccc(O)cc1)NC(=O)[C@H](CCCCN)NC(=O)[C@H](CCCCN)NC(=O)[C@@H](NC(=O)[C@H](C)NC(=O)[C@H](CCSC)NC(=O)[C@H](CCC(N)=O)NC(=O)[C@H](CCCCN)NC(=O)[C@H](CCCN=C(N)N)NC(=O)[C@H](CC(C)C)NC(=O)[C@H](CCCN=C(N)N)NC(=O)[C@@H](NC(=O)[C@H](Cc1ccc(O)cc1)NC(=O)[C@H](CC(N)=O)NC(=O)[C@H](CC(=O)O)NC(=O)[C@@H](NC(=O)[C@H](Cc1ccccc1)NC(=O)[C@@H](NC(=O)[C@H](C)NC(=O)[C@H](CC(=O)O)NC(=O)[C@H](CO)NC(=O)[C@@H](N)Cc1c[nH]cn1)C(C)C)[C@@H](C)O)[C@@H](C)O)C(C)C)C(=O)N[C@@H](CC(C)C)C(=O)N[C@@H](CC(N)=O)C(N)=O,"ADCYAP1R1 (Homo sapiens, UniProt P41586, del89-109)","Gs dissociation, downward phase, agonist, BRET2 TRUPATH",COS-7,37 °C,,EC50,0.0912 µM
CCCCCc1cc(O)c2c(c1)OC(C)(C)C1=C2C(OC)C(C)(O)CC1 (stereo not drawn),Si,"enzyme activity, inhibitor, absorbance",,,,IC50,470 µM
CS(C)(=O)=Nc1ccc(-c2ccc(-c3nc4cc(O[C@@H]5CO[C@H]6[C@@H]5OC[C@H]6O)[nH]c4cc3F)cc2)cc1,KIT,"enzyme activity, inhibitor",,10 µM,,inhibition,-8%
Cc1ccc2c(C(C[N+](=O)[O-])c3cccs3)c(-c3ccccc3)[nH]c2c1 (stereo not drawn),"Cannabinoid receptor 1, with Gi1 (CNR1, Homo sapiens, UniProt P21554)","Gi1 dissociation, agonist, BRET",HEK293,,,EC50,0.13 ± 0.01 µM
CC(=O)NC1C(OC2C(O)C(CO)OC(OC3C(O)C(CO)OC(OC4C(O)C(O)OC(CO)C4O)C3NC(C)=O)C2OC2OC(C)C(O)C(O)C2O)OC(CO)C(O)C1O (stereo not drawn),"slo (Streptococcus pyogenes, UniProt P0C0I3)",binding,,,,Kd,0.105 µM
CC(C)CC(C(=O)N1CC2(CC1C#N)C(=O)Nc1ccccc12)N(C)C(=O)c1cc2c(F)cc(F)c(F)c2[nH]1 (stereo not drawn),"CAPN1 (Homo sapiens, UniProt P07384)",,,,,IC50,> 100 µM
CCC[C@H](C(=O)c1ccccc1)N1CCCC1,"SLC6A4 (Homo sapiens, UniProt P31645)","transporter uptake, inhibitor, radiometric",,,,Ki,653 µM
O=C1NC(=O)c2c1c1cc(F)c[n+]3c1c1c2c2cc(O)ccc2[n]1[Ru-4]312([N]=C=S)[S+]3CC[S+]1CC[S+]2CC3 (stereo not drawn),KIT,enzyme activity,,"100 nM, human enzyme, added: 10 µM ATP",baseline: untreated,remaining activity,113%
CCCCCc1cc(OCC=C(C)C)c2c(c1)OC(C)(C)C1=C2[C@@H](O)[C@@](C)(O)CC1,Si,"enzyme activity, inhibitor, absorbance",,,,IC50,720 µM
O=[N+]([O-])CC(c1ccco1)c1c(-c2ccccc2)[nH]c2ccccc12 (stereo not drawn),"CNR1 (Homo sapiens, UniProt P21554, F191A)","G protein activation, agonist, BRET",,,,EC50,> 1000 µM
CCCCCn1cc(C(=O)c2cccc3c2CC(C)(C)C3)c2ccccc21,"CNR2 (Homo sapiens, UniProt P34972, V261L)","cAMP, agonist, BRET",,,,EC50,0.00214 µM
O=C1NC2(CC2)COc2ncc(F)cc2[C@H]2COCCN2c2ccn3ncc1c3n2,,,"Sprague-Dawley rat, female, ovaries","oral, 20 mg/kg/day, 4 weeks, end of treatment",,organ-to-brain weight ratio,6.71 ± 1.11%
CCCCCn1cc(C(=O)c2cccc3ccccc23)c2ccccc21,CNR1,"Gαi1 activation, agonist, BRET",,,,EC50,0.0186 µM
COc1ccccc1C(C[N+](=O)[O-])c1c(-c2ccccc2)[nH]c2ccccc12 (stereo not drawn),"CNR1 (Homo sapiens, UniProt P21554, I245L)","G protein activation, agonist, BRET",,,,EC50,> 12 µM

# Some of these lines once more:
Structure (SMILES),tested on,test,test system,conditions,how to read,endpoint,value
O=[N+]([O-])CC(c1ccco1)c1c(-c2ccccc2)[nH]c2ccccc12 (stereo not drawn),"CNR1 (Homo sapiens, UniProt P21554, F191A)","G protein activation, agonist, BRET",,,,EC50,> 1000 µM
CCCNC(=O)C1CCCN(CCOc2ccc(Cl)cc2)C1 (stereo not drawn),DRD3,binding,,,,Ki,0.2 µM
CSc1cc(C)[nH]c(=O)c1CNC(=O)c1c(C)n([C@H](C)C2CCN(CC(F)(F)F)CC2)c2ccccc12,"Histone-lysine N-methyltransferase EZH2, PRC2 pentameric complex (EZH2, Homo sapiens, UniProt Q15910)","enzyme activity, inhibitor",,added: H3K27me3 activating peptide,,IC50,0.0002 µM
CS(C)(=O)=Nc1ccc(-c2ccc(-c3nc4cc(O[C@@H]5CO[C@H]6[C@@H]5OC[C@H]6O)[nH]c4cc3F)cc2)cc1,KIT,"enzyme activity, inhibitor",,10 µM,,inhibition,-8%
